Assay results from different studies.
A part holds a random share of what one study measured. Substitutions count along the parent as printed.

Sample 1 — target: CCND2, cyclin fold, Cln2 fusion (human); technique: yeast growth competition, sequencing; matrix: yeast; notes: strong parent motif; reference: not given; reading: higher = stronger binding; endpoint: normalised enrichment score
Parent: PKN2 docking peptide (human); VSAVRKLDFSDTM; partner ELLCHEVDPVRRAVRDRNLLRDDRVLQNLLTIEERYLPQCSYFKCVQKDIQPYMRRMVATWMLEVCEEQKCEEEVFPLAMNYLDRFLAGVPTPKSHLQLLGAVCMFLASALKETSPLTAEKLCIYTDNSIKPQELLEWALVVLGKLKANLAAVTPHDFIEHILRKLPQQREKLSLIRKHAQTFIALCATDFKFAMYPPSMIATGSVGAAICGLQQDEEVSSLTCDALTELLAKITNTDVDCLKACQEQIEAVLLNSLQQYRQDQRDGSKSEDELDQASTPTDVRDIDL
VSAVRKLDASDTM [F9A]: 0.0316
VSAVRALDFSDTM [K6A]: 1.71
VFAVRKLDFSDTM [S2F]: 1.14
VSAVRKCDFSDTM [L7C]: 0.0374
VSCVRKLDFSDTM [A3C]: 2.19
VSAVRKLDFGDTM [S10G]: 3.51
VSAVRKLDFADTM [S10A]: 3.35
VSAVRKLDFSFTM [D11F]: 2.44
VSAVRKLNFSDTM [D8N]: 2.47
VSARRKLDFSDTM [V4R]: 3.69
VSAERKLDFSDTM [V4E]: 0.439
VSAVRKLWFSDTM [D8W]: 0.194
VSAVRKLDFSDFM [T12F]: 3.55
VSAVRKLDFYDTM [S10Y]: 2.23
VSAVEKLDFSDTM [R5E]: 0.23
VSAVRKLDPSDTM [F9P]: 0.182
VSAVRKKDFSDTM [L7K]: 0.364

Sample 2 — target: UBE2V1 UBC core domain (UniProt Q13404); technique: yeast two-hybrid; matrix: yeast; notes: mostly zero background; reference: not given; reading: higher = stronger interaction; endpoint: lacZ reporter activity
B1: RMND5B RING domain (UniProt Q96G75); chain MKCWYHSVFACPILRQQTSDSNPPIKLICGHVISRDALNKLINGGKLKCPYCPMEQNPADGK
B2: RNF11 RING domain (UniProt Q9Y3C5); chain RDGSEKKIRECVICMMDFVYGDPIRFLPCMHIYHLDCIDDWLMRSFTCPSCMEPVDAALLSS
B3: ARIH1 RING domain (UniProt Q9Y4X5); chain NTRSSAQDMPCQICYLNYPNSYFTGLECGHKFCMQCWSEYLTTKIMEEGMGQTISCPAHGCDILVDDNTVM
B4: RNF7 RING domain (UniProt Q9UBF6); chain AICRVQVMDACLRCQAENKQEDCVVVWGECNHSFHNCCMSLWVKQNNRCPLCQQDWVVQRIGK
B5: RNF10 RING domain (UniProt Q8N5U6); chain VRICSHEVPSCPICLYPPTAAKITRCGHIFCWACILHYLSLSEKTWSKCPICYSSVHKKDLKS
B6: MARCHF2 RING domain (UniProt Q9P0N8); chain RLLSTVIRALDTPSDGPFCRICHEGANGECLLSPCGCTGTLGAVHKSCLEKWLSSSNTSYCELCHTEFAVEKRPRPLTEWL
B7: TRIM68 RING domain (UniProt Q6AZZ1); chain LVEAIVEEVACPICMTFLREPMSIDCGHSFCHSCLSGLWEIPGESQNWGYTCPLCRAPVQPRNLRP
B8: PJA2 RING domain (UniProt O43164); chain DHTAIGQEQCCPICCSEYIKDDIATELPCHHFFHKPCVSIWLQKSGTCPVCRRHFPPAVIEA
B9: RFPL3 RING domain (UniProt O75679); chain MAALFQEASSCPVCSDYLEKPMSLECGCTVCLKCINSLQKEPHGEDLLCCCCSMVSQRNKIRP
B10: TRIM28 RING domain (UniProt Q13263); chain GAEALELLEHCGVCRERLRPEREPRLLPCLHSACSACLGPAAPAAANSSGDGGAAGDGTVVDCPVCKQQCFSKDIVE
Construct (chain): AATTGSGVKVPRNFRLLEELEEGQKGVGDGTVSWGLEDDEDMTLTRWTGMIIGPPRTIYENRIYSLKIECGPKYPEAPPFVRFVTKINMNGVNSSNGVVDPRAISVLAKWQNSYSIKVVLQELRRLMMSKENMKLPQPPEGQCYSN
B1 (RMND5B RING domain): 0
B2 (RNF11 RING domain): 0
B3 (ARIH1 RING domain): 0
B4 (RNF7 RING domain): 0
B5 (RNF10 RING domain): 0
B6 (MARCHF2 RING domain): 0
B7 (TRIM68 RING domain): 0
B8 (PJA2 RING domain): 0
VPADASPDSKCPICLDRFDNVSYLDRCLHKFCFRCVQEWSKNKAECPLCKQPFDSIFHSV (TOPORS RING domain (UniProt Q9NS56)): 0
B9 (RFPL3 RING domain): 0
B10 (TRIM28 RING domain): 0
EDVLSKDAGECAICLEELQQGDTIARLPCLCIYHKGCIDEWFEVNRSCPEHPSD (ZNRF2 RING domain (UniProt Q8NHG8)): 0
MEEMEEELKCPVCGSFYREPIILPCSHNLCQACARNILVQTPESESPQSHRAAGSGVSDY (TRIM9 RING domain (UniProt Q9C026)): 0

Sample 3 — technique: protein-binding microarray; molecule type: double-stranded DNA, one strand shown; matrix: in vitro; concentration: 0.8 µM; notes: whole 60-bp probe, no competitor; reading: higher = stronger binding; endpoint: fluorescence intensity
Target: Centromere-binding protein 1, full length, N-terminal tag (CBF1, Saccharomyces cerevisiae, UniProt P17106, residues 1-351)
UniProt P17106, sequence (whole entry, looked up): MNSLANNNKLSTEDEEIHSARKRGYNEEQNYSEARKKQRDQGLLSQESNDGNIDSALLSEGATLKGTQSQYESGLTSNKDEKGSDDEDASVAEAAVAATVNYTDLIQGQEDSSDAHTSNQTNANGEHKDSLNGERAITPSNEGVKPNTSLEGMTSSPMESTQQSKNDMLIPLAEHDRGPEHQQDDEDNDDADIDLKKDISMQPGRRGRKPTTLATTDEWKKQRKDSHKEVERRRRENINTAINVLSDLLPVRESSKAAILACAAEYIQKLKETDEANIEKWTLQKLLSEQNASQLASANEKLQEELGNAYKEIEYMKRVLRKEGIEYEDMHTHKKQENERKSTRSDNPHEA
CTACATATTCCTGATCAGATGAAAGTTAACGCTTTCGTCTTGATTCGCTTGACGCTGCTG: 578 a.u.
TGTACGAAGCTATTCGGTGTGATTATAGTAGTTAGGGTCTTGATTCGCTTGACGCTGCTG: 522 a.u.
CTATTAGTAGTATATTATCACGTGCGGTGTAAGTTCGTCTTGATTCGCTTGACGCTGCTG: 10300 a.u.
CTACGTTCAAGCTATTCACCTGTTACAGCAGTATTCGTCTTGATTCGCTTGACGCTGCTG: 539 a.u.
GAACGGGGTCCGGGTAACGTGCTTGCGCGCGGATAGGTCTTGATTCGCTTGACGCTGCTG: 827 a.u.
CTAAAAAACCCTTTTCGCGTGCCTGTGATGCTTTTCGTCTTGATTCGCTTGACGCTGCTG: 565 a.u.
CCTAACTACTATAGTGATTTTTCATAGCTTCGTACAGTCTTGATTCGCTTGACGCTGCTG: 518 a.u.
GAACCACTAGGGCTGGTCGTGGGGTACGTGGGGTAGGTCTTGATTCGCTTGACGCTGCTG: 495 a.u.
GAAATGGACATTATAAACGTGTGAACATTTCAATAGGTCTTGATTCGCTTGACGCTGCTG: 544 a.u.
GAAAGGGTGCTGAATCGTGATCACGACCCGCGGTAGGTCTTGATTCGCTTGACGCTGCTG: 2650 a.u.
GAAACCCCCAATCCACGTGTGTTTTATACGCTTTAGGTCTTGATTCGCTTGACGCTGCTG: 1740 a.u.
GAAATAGTCCAAACCGTGACAACTATGCAGGGATAGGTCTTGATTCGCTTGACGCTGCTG: 658 a.u.
CCTAACTACTATAAGCACGTCTTATAGCTTCGTACAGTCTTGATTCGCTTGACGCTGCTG: 504 a.u.
CTATTACAAGAGCGCCACGAGGCAAGGAAAAAATTCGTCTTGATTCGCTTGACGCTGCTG: 589 a.u.
CTAATTGCTTTTTCTGACGTGCTTCCTTCACTATTCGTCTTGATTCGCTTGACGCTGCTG: 539 a.u.
CTACTACCGTCAAATATACACGTGTATTCACTGTTCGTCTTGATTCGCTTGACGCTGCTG: 4620 a.u.
CTAACCTTTTTCCATCAGCTGGCAGGGAACGGATTCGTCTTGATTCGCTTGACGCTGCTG: 599 a.u.
GAAACTCAGAGCACGCACGCTTCCGTTCGAAATTAGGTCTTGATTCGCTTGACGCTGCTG: 574 a.u.
CTATGGTTGTACTTCCTCGTGTGTCAGATACTTTTCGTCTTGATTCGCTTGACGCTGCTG: 570 a.u.
CTATGGGGAATACATGATGTGAATGTGCATAAATTCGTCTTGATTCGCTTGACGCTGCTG: 549 a.u.

Sample 4 — technique: protein binding microarray; molecule type: double-stranded DNA, one strand shown; matrix: in vitro; concentration: not given; reference: not given; reading: higher = stronger binding; endpoint: E-score
Target: Histone acetyltransferase KAT6A, winged helix 2, GST fusion (KAT6A, Homo sapiens, UniProt Q92794, residues 85-181)
Notes: 8-mer, flanks averaged, mean of 2 arrays, mostly near background
Target sequence (chain): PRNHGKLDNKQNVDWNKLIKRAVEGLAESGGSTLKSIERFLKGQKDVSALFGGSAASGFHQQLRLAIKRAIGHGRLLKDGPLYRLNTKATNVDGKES
TAGATAAA: 0.0975
AGCGTTCA: -0.22
AAAGGCGA: -0.00762
AAGATTTC: -0.0833
AAGCTGAC: 0.111
CTGCGTCC: 0.182
AAATATTT: 0.142
GGCGTAAC: -0.196
AGAACGTA: 0.0165
ACATCTCT: -0.228
GCGCGATA: 0.175
GTTGCGGA: 0.0592
GCGGACGC: 0.219
GTTACAAA: 0.0559
AACAAGCT: 0.033
AGAAGTGA: -0.156
GTGTGAAA: 0.139
AGACTGAC: 0.0102

Sample 5 — target: MAFF, bZIP domain (human); technique: DHFR protein complementation; matrix: yeast; reference: wild-type JUN-FOS pair; reading: higher = stronger binding; endpoint: binding fitness
Notes: single substitutions, most at no-binding floor
Parent: JUN, bZIP domain (human); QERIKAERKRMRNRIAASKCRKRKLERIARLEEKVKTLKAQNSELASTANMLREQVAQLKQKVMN; partner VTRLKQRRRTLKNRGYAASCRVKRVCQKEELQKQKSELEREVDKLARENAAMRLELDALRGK
S43D: -1.51 natural log
A49S: -1.48 natural log
S43V: -1.47 natural log
A46F: -1.48 natural log
S47I: -1.32 natural log
Q55H: -1.43 natural log
V56G: -1.46 natural log
E32H: -1.49 natural log
L38D: -1.49 natural log
T48M: -1.4 natural log
Q41N: -1.55 natural log
E33Q: -1.32 natural log
M51H: -1.11 natural log

A few entries again (sample 3):
GAAACCCCCAATCCACGTGTGTTTTATACGCTTTAGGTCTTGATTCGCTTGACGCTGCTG: 1740 a.u.
GAAATAGTCCAAACCGTGACAACTATGCAGGGATAGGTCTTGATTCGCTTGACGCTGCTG: 658 a.u.
CCTAACTACTATAAGCACGTCTTATAGCTTCGTACAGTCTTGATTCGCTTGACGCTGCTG: 504 a.u.
CTATTACAAGAGCGCCACGAGGCAAGGAAAAAATTCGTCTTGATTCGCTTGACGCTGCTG: 589 a.u.
CTAATTGCTTTTTCTGACGTGCTTCCTTCACTATTCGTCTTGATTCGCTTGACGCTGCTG: 539 a.u.
CTACTACCGTCAAATATACACGTGTATTCACTGTTCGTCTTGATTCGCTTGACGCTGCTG: 4620 a.u.
CTAACCTTTTTCCATCAGCTGGCAGGGAACGGATTCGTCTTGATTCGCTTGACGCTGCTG: 599 a.u.
GAAACTCAGAGCACGCACGCTTCCGTTCGAAATTAGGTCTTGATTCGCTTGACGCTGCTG: 574 a.u.
CTATGGTTGTACTTCCTCGTGTGTCAGATACTTTTCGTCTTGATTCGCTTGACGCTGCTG: 570 a.u.
CTATGGGGAATACATGATGTGAATGTGCATAAATTCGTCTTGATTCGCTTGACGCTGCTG: 549 a.u.
